Experimental data gathered from unrelated publications.
Parts stem from different laboratories: compare values within a part only. Positions count from the first letter of the parent shown.

Series 1 — technique: RNA Bind-n-Seq; form: RNA; sample: in vitro; tested at: 365 nM; reference: no-protein control; direction: higher = stronger binding
Target: RNA binding protein fox-1 homolog 2, RRM domain, GST-SBP tag (RBFOX2, Homo sapiens, UniProt O43251-10, residues 100-194)
Setting: natural RNA segment, single round, ends assumed
Construct (chain): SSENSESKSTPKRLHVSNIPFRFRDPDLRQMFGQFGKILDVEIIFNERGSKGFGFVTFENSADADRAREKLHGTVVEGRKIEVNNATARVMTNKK
Oligonucleotide | RBNS enrichment (R)
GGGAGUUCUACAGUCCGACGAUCUUUCUAAGGAUUUGUUUACUUUUUGUGUUCUGUUUUGCUGUAUUAAAAACUUGUCCUUUUCCUUAAAUCAAAGUAGGACUCGAGUCCUCGUUUUUCACGCUGGCUUUGUUUGGAAUUCUCGGGUGCCAA | 0.889
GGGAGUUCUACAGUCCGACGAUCUGGUUUUGAUUUCAGAUUGCAAACAUGUAAAACCUGCAUAGCAGCGAGUUCUCGGUUUUGCCGGUUUCUUUAGUUCUUUACUGUCACUGUCAUGUAAUCAGCUAAUUCUCUGGAAUUCUCGGGUGCCAA | 0.291
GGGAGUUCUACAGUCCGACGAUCAGCAGGGCCAUUCCUACUGAAGGACGGGCCCCCUACGGAGAUGAAAUUUGUUUCCUGGUGAGCACAGAAUCAGAACAAAGAACAAUAUCCCAAAGAGGCCCUGUGUCUACUGGAAUUCUCGGGUGCCAA | 0.356
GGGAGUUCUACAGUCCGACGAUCACUCACAGGGGAUUCUCUGCAUUCAUCCCGGGUCUGUCCUCUCUGACUCUGCUACAUACAGGGUCCAUGUGGGCUGAUAACUAGUACCAGGGGCCUGCUGCAUGCUACGCUGGAAUUCUCGGGUGCCAA | 13.2
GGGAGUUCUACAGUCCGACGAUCGACUGCUGGAACCCAAAACUGACAAGGUUUAUUUUUUCCAGAGCCGGUGGCUGGUCUUCCAUUUACAGUGUCACUAUUCCUUGAUGGAGCAGUUAUGUGCCCGCUCUGGUUGGAAUUCUCGGGUGCCAA | 0.792
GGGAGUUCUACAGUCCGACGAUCUUUGAUUUAGAUUGAGUAAGAUUUACCCAGAAUGUCAGAUUCCUUUCCCUUUAGCACGUUUAAAGUUCUGUGUAUUUAAUUGUAAACUGUACUAGUCUGUGUGGGACUGUUGGAAUUCUCGGGUGCCAA | 7.79
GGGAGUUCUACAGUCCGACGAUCGGAGCCUAUUUCUAGCCACUCCUGUUGACAGUGCACCUGAAGGGCUGGGAUGCGUUUUUCUUGGUGUUGCAUGCUCACAACUCUGCUGACAUUGGGAACUUAUGAGAGAGUGGAAUUCUCGGGUGCCAA | 17.2
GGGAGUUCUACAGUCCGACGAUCAAUGUAAUGAGUGAGCUAAUUGAUUUUUUAGACCAUAUUUGAAGAUGUGGAUGACUUACAAGAAACACAAAAGAAAGGUACUUAUAGAGUCUGGUUCUAAUAAUUGGUACUGGAAUUCUCGGGUGCCAA | 0.741
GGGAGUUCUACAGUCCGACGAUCUAGUUGAGACUUGUAGACAUUUAUUUAUACUGUGUCAUGUUUUAUAAUUUAUACAUAAAAUGUCUGGUUGACUGUACACCUUGUUUUUUUGAAGAAAUUUAUUCGUGAAAUGGAAUUCUCGGGUGCCAA | 1.61
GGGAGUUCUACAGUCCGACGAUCGGUGCCUGCCUUUGUCUGUGAGCUCAUUCCCACUGUUACCCUGAGCUGGCCCAAUGGAGCCUUACAGAACUAAUCAGGACUUGUGGAGACCUCUGCACUGAACUUCCUAUUGGAAUUCUCGGGUGCCAA | 0.49
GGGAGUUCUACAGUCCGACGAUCUAAAUAUUAACCAGGUUAGUGUUGAGUUAGAAAUUACAUUUCUGAGUUCAAGCGUUGUCUUUUUAAGUUUAAAAAACUAUAAAGGGUUGUUUUUACUAGGUAGACUGGCAUGGAAUUCUCGGGUGCCAA | 0.624
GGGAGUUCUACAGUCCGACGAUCUGACUGUAAUACAGCCUUCAUUGUGCUAUUCAUCCCAUUGUUUGCUUCACUCUGUCUGUGUAAAAGCCAGGGCUAUUCCCGCUUAGAUGAUUGCUUAUUUAUGUGUAACAUGGAAUUCUCGGGUGCCAA | 1.32

Series 2 — technique: DHFR PCA, deep sequencing; sample: yeast; together with: (+)-ABA 0 µM; reference: wild-type fitted maximum; direction: higher = stronger binding
Target: ABI1, truncated, D143A, DHFR fusion (Arabidopsis thaliana)
Setting: methotrexate growth selection, single substitutions
Parent: PYL1, truncated, DHFR fusion (Arabidopsis thaliana); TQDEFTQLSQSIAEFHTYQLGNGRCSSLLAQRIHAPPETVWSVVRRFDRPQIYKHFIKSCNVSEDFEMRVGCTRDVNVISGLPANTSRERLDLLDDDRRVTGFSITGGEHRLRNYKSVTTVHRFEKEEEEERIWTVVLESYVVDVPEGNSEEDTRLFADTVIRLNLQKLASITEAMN
Variant | relative binding score
V145P | -13.6%
E152V | 5.11%
G148K | -17.8%
H34C | 32.1%
S42W | -7.38%
C72R | 1.01%
N114A | 0.469%
R98K | 27.5%
E89D | 6.72%
Y115I | 0.373%
I172G | -9.24%
H55E | 25.6%
D97N | 27.3%
L138C | 3.53%
R113T | 11.9%

Series 3 — technique: protein-binding microarray; form: double-stranded DNA, one strand shown; sample: in vitro; tested at: 2200 nM top; setting: 60-bp whole probe; together with: salmon DNA 0.4 mg/ml; reference: random background probes; direction: higher = stronger binding; all sequences stand within: GCCTAGCAC … GTCTTGATTCGCTTGACGCTGCTG
Target: Interferon regulatory factor 7, full length, phosphomimetic (IRF7, Homo sapiens, UniProt Q92985, residues 1-503, S471D/S472D/S475D/S476D/S477D/S483D/S484D/S487D)
Sequence of UniProt Q92985 (whole entry, unmodified, looked up): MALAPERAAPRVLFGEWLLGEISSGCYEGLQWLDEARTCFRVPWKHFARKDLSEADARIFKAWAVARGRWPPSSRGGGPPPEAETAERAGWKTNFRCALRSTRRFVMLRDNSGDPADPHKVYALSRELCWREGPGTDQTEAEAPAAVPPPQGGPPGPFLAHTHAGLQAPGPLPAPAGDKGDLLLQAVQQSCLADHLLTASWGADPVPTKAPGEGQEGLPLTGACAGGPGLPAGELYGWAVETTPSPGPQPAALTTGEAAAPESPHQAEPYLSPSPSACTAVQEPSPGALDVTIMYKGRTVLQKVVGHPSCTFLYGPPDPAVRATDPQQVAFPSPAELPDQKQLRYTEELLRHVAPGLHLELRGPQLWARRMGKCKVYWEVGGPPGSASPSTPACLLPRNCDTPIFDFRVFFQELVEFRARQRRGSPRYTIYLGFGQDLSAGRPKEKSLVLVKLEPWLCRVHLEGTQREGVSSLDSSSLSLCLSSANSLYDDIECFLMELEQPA
Oligonucleotide | fitted relative affinity [z-score]
GACGGTTTCGGTTTCGGGAGGTGCTAG | 15.2
GACGATATCGGGACTGGAGCCGTGCTA | -0.371
GATGGTATCCTTTTCCTGACGTGCTAG | 1.46
TTATGTATCCTTTTCCTTTAGTGCTAG | 2.63
TCAGAACTGAGTCTCGATTAGTGCTAG | 0.000429
TTTCCTTCCTCTTTTACCCCGTGCTAG | 5.47
TCATCTTTTCTTTTCTTACTGTGCTAG | 4
TTAGGTTTCGCTCTCGGTTAGTGCTAG | 5.52
TCACGTCTGATTTTGCTACTGTGCTAG | 1.4
TTAGGACTGCACACTGGGTTAGTGCTA | -0.289
GACGGTACCGGTTTCGGGACGTGCTAG | 2.9
GACGGTTTCGACTTTCGGGAAGTGCTA | 7.62
TTAGGTTTCGGTTTCGATTAGTGCTAG | 15.3
TTAGAACTTAGACTGGATTAGTGCTAG | -0.666
TATATTATATATTTATGTATGTGCTAG | 0.67
TTAGAACTGAGACTGGACTAGTGCTAG | -0.752
GACGAACTGAGCTTCGAGACGTGCTAG | -0.152
TCATTTTTCTCAACCGTACTGTGCTAG | 1.89
TCAGAACTGTTTCTTGAACTGTGCTAG | 0.514
GACGGTATCGGACTGGGGCCGTGCTAG | -0.477
ATTGATAGTTTCACAATGCCGTGCTAG | 3.52
GACGGACTGGCCTTTCGGGACGTGCTA | -0.218
TCATTGATGGCTCTCTGACTGTGCTAG | 0.303
TTAGAACTGGGGACTGGACTAGTGCTA | -0.595
TCATCTTCATGTTTTTTACTGTGCTAG | 1.73

Series 4 — technique: competition protein-binding microarray; form: double-stranded DNA, one strand shown; sample: in vitro; tested at: 2 µM; together with: Pho4 competitor, 0.05 µM; direction: higher = stronger binding
Target: Centromere-binding protein 1, full length, His-tagged (CBF1, Saccharomyces cerevisiae, UniProt P17106, residues 1-351)
Sequence of UniProt P17106 (whole entry, looked up): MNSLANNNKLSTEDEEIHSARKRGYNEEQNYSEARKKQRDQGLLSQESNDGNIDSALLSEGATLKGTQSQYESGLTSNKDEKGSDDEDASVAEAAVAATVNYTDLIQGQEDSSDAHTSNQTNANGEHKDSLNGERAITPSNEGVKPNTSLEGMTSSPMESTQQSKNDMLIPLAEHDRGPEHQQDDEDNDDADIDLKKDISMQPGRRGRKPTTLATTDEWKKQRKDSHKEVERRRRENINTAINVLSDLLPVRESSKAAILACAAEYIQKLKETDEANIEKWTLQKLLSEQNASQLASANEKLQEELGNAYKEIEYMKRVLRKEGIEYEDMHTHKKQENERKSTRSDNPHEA
Setting: whole 60-bp probe, lowest competitor level
Oligonucleotide | fluorescence intensity [a.u.]
CACTACCACTGCGCACCCGTGACGGTGCTCCAAAGTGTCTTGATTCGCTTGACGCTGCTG | 162
CGTAAATATCAACTTGTCGTGCTAATAAGCACTAACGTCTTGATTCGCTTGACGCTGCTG | 84.7
TGCGCAACAACTTGTGGAGTGGGTGTATGTCTAGAAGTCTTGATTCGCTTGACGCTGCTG | 62.7
CAAAGCCCTATTCGCGTCGTGACGGACTGAATGTCAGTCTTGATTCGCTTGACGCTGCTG | 112
AAATTACTAAGTTGAAACGTGGGTGACGCCGTATGAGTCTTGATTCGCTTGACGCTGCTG | 92.8
CGGGGTTAAGTTTGTCACCCGACTTGCTTGCAGCAGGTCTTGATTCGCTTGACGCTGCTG | 65.4
GGACAGATAGATCGGCACGTGTTGAGCCAGTTGTTCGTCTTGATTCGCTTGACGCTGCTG | 1860
CATCAATCTTTCCATCACGCAATGGCTTGTTGTTTTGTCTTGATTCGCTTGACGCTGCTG | 81.3
TTAAAACACTAATGAAACGTGTTGAAGGGGCCCGACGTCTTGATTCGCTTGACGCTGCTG | 95.5
CCTCAACAACGTCGGGGCGTGGGTATTGGGATATCGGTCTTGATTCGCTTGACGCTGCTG | 74.9
AAATTACTAAGTTGCTAGGTGGGTGACGCCGTATGAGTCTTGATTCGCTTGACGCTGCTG | 71
CGGGGTTAAGTTTGCAGGGTGGGTGGCTTGCAGCAGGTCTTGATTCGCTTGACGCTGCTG | 70.8
TAAGGTCATTAAGAACCCGTGACTCGTATCACCAAAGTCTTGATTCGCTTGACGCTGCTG | 1430
GTCTTGTCTCATTTTCACGTGGTATTCCCCACTTCAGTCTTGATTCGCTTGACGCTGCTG | 958
CTTCTGTAAATTTGTCACGATACTTGACGCGCCCCGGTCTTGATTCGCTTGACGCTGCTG | 283
GATGATGTTGGTTTGACCGTGATGGATGTCCAAGTAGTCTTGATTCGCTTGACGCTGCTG | 67.4
GTCTTGTCTCATTGCTATGTGGGTGTCCCCACTTCAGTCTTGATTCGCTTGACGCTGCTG | 79.9
AAAAAACGAATGACTCACGTTATCAGGCTCATAGCTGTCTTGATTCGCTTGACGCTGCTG | 225
GCCCTGTCCAGGATTGGCGTGGGACCGCTGGCCGCAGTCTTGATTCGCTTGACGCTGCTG | 48.4
GCGTCGTTTGTAGCCGACGTGCTTTATTTATACGGTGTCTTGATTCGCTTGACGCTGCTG | 87.4
GTTTGGTGCAGTGGCCACGAGGTGACTGCGACAGTCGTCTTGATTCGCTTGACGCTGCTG | 106
TAGTATCAAAGTAGGCATGTGGGTTGATACCAACGAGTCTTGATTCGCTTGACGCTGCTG | 81.8
GCCACTCTAGACCGTCACATGTCCAATGTTTCTTTTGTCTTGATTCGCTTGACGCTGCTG | 921
ATTGTTTGGCTTCGTCACGTGGGTAAGTGCCGGAGAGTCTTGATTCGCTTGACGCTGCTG | 3000

Series 5 — target: CCNE1, cyclin fold, Cln2 fusion (human); technique: yeast growth competition, sequencing; sample: yeast; setting: strong parent motif; reference: not given; direction: higher = stronger binding
Parent: E2F1 docking peptide (human); PPVKRRLDFETDH
Variant | normalised enrichment score
PCVKRRLDFETDH [P2C] | 6.42
PPVFRRLDFETDH [K4F] | 3.68
PPVKRRSDFETDH [L7S] | 0.239
PKVKRRLDFETDH [P2K] | 6.75
PPVKRRLDFETCH [D12C] | 6.47
PPVKRRLDFETVH [D12V] | 6.48
PPVTRRLDFETDH [K4T] | 3.72
PPVKRRLDTETDH [F9T] | 0.196
PPDKRRLDFETDH [V3D] | 0.155
PSVKRRLDFETDH [P2S] | 6.51
PPVKRRLDFETQH [D12Q] | 6.62
PPVKRRLHFETDH [D8H] | 6.26
PPVKRRLDFETWH [D12W] | 6.54
PPVKTRLDFETDH [R5T] | 0.434
PPVKRRLDPETDH [F9P] | 0.0745
PEVKRRLDFETDH [P2E] | 5.02
PPVKRRLDFKTDH [E10K] | 5.97
PPVKRRLDFEIDH [T11I] | 6.18
PPVKRRLDFDTDH [E10D] | 6.34
PPWKRRLDFETDH [V3W] | 6.31
PPVKRRLDFETPH [D12P] | 6.35
PPVKRRLDFWTDH [E10W] | 5.1
PPKKRRLDFETDH [V3K] | 0.614
PPVKRRLDFETLH [D12L] | 6.28
PPYKRRLDFETDH [V3Y] | 4.77

Some of these lines once more (series 3):
Oligonucleotide | fitted relative affinity [z-score]
TCACGTCTGATTTTGCTACTGTGCTAG | 1.4
TATATTATATATTTATGTATGTGCTAG | 0.67
GACGGACTGGCCTTTCGGGACGTGCTA | -0.218
GATGGTATCCTTTTCCTGACGTGCTAG | 1.46
TTAGGTTTCGGTTTCGATTAGTGCTAG | 15.3
TTTCCTTCCTCTTTTACCCCGTGCTAG | 5.47
TTAGGACTGCACACTGGGTTAGTGCTA | -0.289
TCAGAACTGAGTCTCGATTAGTGCTAG | 0.000429
TTAGAACTGGGGACTGGACTAGTGCTA | -0.595
